Published values of several laboratories.
Every numbered part comes from another study and shows a few of its results, in no order. Substitutions count along the parent as printed.

Series 1 — method: protein-binding microarray; form: double-stranded DNA, one strand shown; medium: in vitro; tested at: 940 nM top; notes: 60-bp whole probe; added: salmon DNA 0.4 mg/ml; baseline: random background probes; reading: higher = stronger binding; constant ends, left off below: GCCTAGCAC … GTCTTGATTCGCTTGACGCTGCTG
Target: Interferon regulatory factor 5, full length, phosphomimetic (IRF5, Homo sapiens, UniProt Q13568-2, residues 1-514, S451D/S453D/S456D/S462D)
| Sequence | fitted relative affinity [z-score] |
| --- | --- |
| TTAGGTTTCCTTTCCCTTGAGTGCTAG | 2.54 |
| GCCGATTTCGGGACTGGAGACGTGCTA | 0.103 |
| TTAGGTTTCGGGTTTCGGTTTGTGCTA | 11.3 |
| TTAGTTTTCAGTTTCGATTAGTGCTAG | 9.79 |
| GACGAACTGGGGACTGGAGTCGTGCTA | -0.054 |
| GACGATCTCAGTATCAAGACGTGCTAG | 0.28 |
| GACGGTATCGACTTTCGGCACGTGCTA | 4.63 |
| TTTCCACTTTCTTTTGCTTGGTGCTAG | 2.97 |
| TTAGGTCTCGGCATCGGTTAGTGCTAG | 1.79 |
| TTAGCTCTCCTTCTCCTTTAGTGCTAG | 0.406 |
| TTAGGTTTCGGTTCCGGTTCGTGCTAG | 15.9 |
| GGCTGTTTGGTTCTTATCCTGTGCTAG | 0.552 |
| TCAAGTTTGTATATATTACTGTGCTAG | 0.133 |
| TTAGGTTTCGAAACTGGGTTAGTGCTA | 8.2 |
| TTAGGTATCGGATTCGGTTAGTGCTAG | 4.88 |
| CCAGTGCTGCTTTGTCAAGAGTGCTAG | -0.577 |
| TTAGATTTCAGTTCCGAATAGTGCTAG | 0.819 |
| TTAGGTTTCCTTATTCTTTAGTGCTAG | 1.9 |

Series 2 — target: JUN, bZIP domain (human); method: DHFR protein complementation; medium: yeast; baseline: wild-type JUN-FOS pair; reading: higher = stronger binding
Notes: single substitutions, most at no-binding floor
Parent: JUN, bZIP domain (human); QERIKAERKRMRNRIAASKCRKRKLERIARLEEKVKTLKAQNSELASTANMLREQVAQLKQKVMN
| Substitution | binding fitness |
| --- | --- |
| L31S | -1.27 natural log |
| V56N | -1.24 natural log |
| Q41C | -1.39 natural log |
| L38S | -1.34 natural log |

Series 3 — method: protein-binding microarray; form: double-stranded DNA, one strand shown; medium: in vitro; tested at: not given; reading: higher = stronger binding
Target: Protein C-ets-1 (ETS1, Homo sapiens, UniProt P14921, residues 1-441, full length assumed)
Notes: k-mer, scored over probes, only values ≥0.25
Construct (chain): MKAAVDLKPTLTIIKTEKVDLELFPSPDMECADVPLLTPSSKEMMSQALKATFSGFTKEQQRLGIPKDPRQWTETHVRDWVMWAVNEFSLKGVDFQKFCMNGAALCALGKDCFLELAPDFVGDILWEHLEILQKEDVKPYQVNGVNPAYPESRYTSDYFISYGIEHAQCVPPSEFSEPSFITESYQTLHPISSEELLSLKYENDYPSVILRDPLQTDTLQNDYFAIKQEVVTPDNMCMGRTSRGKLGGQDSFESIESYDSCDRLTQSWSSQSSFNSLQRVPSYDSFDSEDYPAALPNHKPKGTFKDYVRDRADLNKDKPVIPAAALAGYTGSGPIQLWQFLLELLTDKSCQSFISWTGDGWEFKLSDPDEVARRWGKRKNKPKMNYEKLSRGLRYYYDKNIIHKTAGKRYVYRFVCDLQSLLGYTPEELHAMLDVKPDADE
| Sequence | E-score |
| --- | --- |
| GTCCGGAC | 0.325 |
| AACGGGAA | 0.359 |
| AATCCGGA | 0.42 |
| CGATTCCG | 0.307 |
| ACTTCCCC | 0.43 |
| GGATGGAA | 0.349 |
| TCCTTCCA | 0.291 |
| ATCCTGTC | 0.447 |
| TCCGTCGA | 0.261 |
| ATTGATCC | 0.274 |
| CCGCCCGC | 0.263 |
| ATGTCCGC | 0.312 |
| CGGAATCA | 0.253 |
| GATCCGGA | 0.419 |
| CATCCTAC | 0.301 |
| GCACTTCC | 0.461 |
| ATCCGTCA | 0.329 |
| GGGGCGGA | 0.388 |
| ACTTTCCG | 0.392 |
| ACCCTTCC | 0.369 |
| AACGGAAC | 0.355 |
| GCGCCGGA | 0.401 |
| TGCCGGAA | 0.467 |
| CAGGAAAG | 0.336 |

Series 4 — method: protein binding microarray; form: double-stranded DNA, one strand shown; medium: in vitro; tested at: not given; baseline: not given; reading: higher = stronger binding
Target: Histone acetyltransferase KAT6A, winged helix 2, GST fusion (KAT6A, Homo sapiens, UniProt Q92794, residues 85-181)
Notes: 8-mer, flanks averaged, mean of 2 arrays, mostly near background
Target sequence (chain): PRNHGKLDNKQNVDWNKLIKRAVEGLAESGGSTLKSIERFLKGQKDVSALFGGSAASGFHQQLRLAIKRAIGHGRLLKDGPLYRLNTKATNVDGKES
| Sequence | E-score |
| --- | --- |
| GCCGCACC | 0.0857 |
| GGATCCAC | -0.115 |
| CCGTATGA | 0.0639 |
| ACCTCCTA | -0.0342 |
| GTCGACAC | 0.00766 |
| AAGTCACA | -0.0891 |
| TCGTGCCA | -0.0466 |
| AAATAGGC | -0.0117 |
| CGAGGGAG | 0.0934 |
| ATTCCTAC | -0.234 |
| CACTATGG | -0.0563 |
| AGGATCAT | -0.0505 |
| TGTAACAA | -0.0899 |
| GAACTAGC | -0.0728 |
| ATACAACA | -0.0823 |
| ACGGATCC | 0.0582 |
| AGCAGGCC | 0.155 |
| AAGAAAAT | 0.156 |
| AATAAACC | -0.0322 |
| AGAAGGCA | -0.0934 |
| AAGGTTGG | -0.0972 |
| CATCCGCA | 0.0963 |
| CCGTCATC | 0.0137 |
| AAAAACTG | -0.135 |
| TATAGTAA | -0.0208 |

Series 5 — method: RNA Bind-n-Seq; form: RNA; medium: in vitro; tested at: 100 nM; baseline: input RNA pool; reading: higher = stronger binding
Target: RING finger protein unkempt homolog, zinc fingers 1-6, SBP tag (UNK, Homo sapiens, UniProt Q9C0B0, residues 30-357)
Chain of UniProt Q9C0B0 (30-357, looked up): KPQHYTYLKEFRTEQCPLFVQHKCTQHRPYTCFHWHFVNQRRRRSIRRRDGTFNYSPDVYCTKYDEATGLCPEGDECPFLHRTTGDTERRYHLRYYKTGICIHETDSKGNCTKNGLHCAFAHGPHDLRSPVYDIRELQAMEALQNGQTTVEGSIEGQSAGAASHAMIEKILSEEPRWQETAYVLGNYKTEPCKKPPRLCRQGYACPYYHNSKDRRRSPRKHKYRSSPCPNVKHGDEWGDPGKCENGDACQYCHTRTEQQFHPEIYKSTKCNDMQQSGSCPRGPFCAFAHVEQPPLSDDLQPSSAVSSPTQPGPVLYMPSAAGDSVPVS
Notes: RNA with constant flanks, vertebrate orthologous sites, ends assumed
Constant ends, left off below: GGGAGUUCUACAGUCCGACGAUC … CAACAGAGGAUUGAGCAUCA
| Sequence | bound/input enrichment |
| --- | --- |
| CUCUAUGGGCCCCGCAGAGUUGAAAUAAUGGAAGAGGAAAGUGAACAGUAAUCUUCAUUUUAGUAUUUAUGUUUAGGUGUGAAAUAAAUGUUAUUUGUUGAUCAUUUCUAUAAUCCAGAG | 0.751 ratio |
| UUUGUGGGGAUCGGGGGGUGGGAAGAAGAUGUAUGGAUGUUAUUGGCAUUUUUAAGUGUUCAGAGUUUUUCUUUUUCCUCCUGUUUUGUUUUUUCCCUUUAAUUGGAUGCACUGACCUGG | 0.46 ratio |
| GGGCCGCUUCGACGUGAAGAUCGAAGUUAAGAGCUGAUCGCGAGCACAGAUCUUUCCCACUAGCCAUUUAAGAAGUUAAAGAUACAAAAACCUACUAGUCUUGAACAAACUGUCAUACGU | 1.76 ratio |
| CUCGCCGCCCCACCCCUGACCUGGAAGAACUUGAGAGAGUUCGUUUUUGCCACCCGCGUGUGUGUGUGUGGCGUAUGUAUGUGCGUGUGUGUUUUGUAAAAGAUAUCAAGACCUGAUGAA | 0.387 ratio |
| GGGACGCUUUGAUGUAAAGAUUGAAGUUAAGAGCUGAUCGCAAGCACAGAUCCUUCCCACUAGCCAUUUAAAACAGUUAAAGAUACAAAAACAAACACCUACUAGUCUUGAAUAAACUGU | 2.48 ratio |
| AUUGUACUACAAAAAGAUCAUCCUAGUUUUAAGCUAACCACAGUGAUAACUAGUCUGUGCUAGUAGAAUCAUUUGCUAUUACUUUUUAAAUUAUCUGCUUUGUCUGAUACCUGAAACCAC | 0.827 ratio |
| GAUUUGGACCUUGGAGCUGAACCAGGGAGCUAGCAAAAGUAAAGCAGACUUGUAAAAUUAUAGCUAUAUGCAGCUGCACAACACAGUCCUACCACUAGCAGCUGUGUUAAAGUAUUUAUA | 0.653 ratio |
| UGUUUUCUUAUUUUAGGUAUCAUUGUCCAGUGCCUAAGAUCUUUUAUGUUCAGCUGACUGUAGGAAAUAAUGAAUUUUUUGGUGAAGGAAAGACUCGACAAGCGGCGAGACACAAUGCUG | 0.625 ratio |
| GUGCAAGGAGAUUAUUCCAACUAGUGAAUUUAUUAACAGUAAAUUGACAGCAAAGGCAAACAGGCAGCUUCAAGAUCCUUUAGUAAUCAUGACCGGAAACAUCCCUACAUGGCUUACUGA | 0.713 ratio |
| CAUUAUACCCUGCUGUAUAAUAAACAAUCUUAGACAUUUAUCAACUGUUGAUACAAAUGUUAGUCCCUAACCACUUUUUAUAUAUGUUUUAAAUUUUUGAAAUUCAAGUGUACCUGCCAU | 0.988 ratio |
| GACGCUUUGAUGUAAAAUUUGAAGUAAAGAGCAGCUGAUCACAAGCACAAUCUUCCCCUCUAGCCAUUUAAAAAAAUUAAAAAAUUAUAAAAAACAAAAACCUACUAGUCUUGAACAAAC | 6.53 ratio |

Series 6 — target: CCND3, cyclin fold, Cln2 fusion (human); method: yeast growth competition, sequencing; medium: yeast; notes: weak parent motif; baseline: not given; reading: higher = stronger binding
Parent: RB1 docking peptide (human); PKPLKKLRFDIEG
| Substitution | normalised enrichment score |
| --- | --- |
| PKPLKKLRIDIEG [F9I] | 0.0444 |
| PKPLKKLRGDIEG [F9G] | 0.24 |
| PKPLKKLRFDISG [E12S] | 0.165 |
| PKPLKKLREDIEG [F9E] | 0.0437 |
| PKPLKKLRFRIEG [D10R] | 0.159 |
| PPPLKKLRFDIEG [K2P] | 0.132 |
| PKPLKKLRFDITG [E12T] | 0.285 |
| PKPLLKLRFDIEG [K5L] | 0.135 |
| PKPNKKLRFDIEG [L4N] | 0.187 |
| PKPLKKLRFDIPG [E12P] | 0.122 |
| PKPLKKLRDDIEG [F9D] | 0.149 |
| PKCLKKLRFDIEG [P3C] | 0.221 |
| PKPLKKLLFDIEG [R8L] | 0.11 |
| PKPLVKLRFDIEG [K5V] | 0.112 |
| YKPLKKLRFDIEG [P1Y] | 0.142 |
| PKPLKKLIFDIEG [R8I] | 0.147 |
| PKRLKKLRFDIEG [P3R] | 0.35 |
| PKPLKKLRFPIEG [D10P] | 0.166 |
| PKPLKKLYFDIEG [R8Y] | 0.129 |

Series 7 — method: DHFR PCA, deep sequencing; medium: yeast; added: (+)-ABA 0.032 µM; baseline: wild-type fitted maximum; reading: higher = stronger binding
Target: ABI1, truncated, D143A, DHFR fusion (Arabidopsis thaliana)
Notes: methotrexate growth selection, single substitutions
Parent: PYL1, truncated, DHFR fusion (Arabidopsis thaliana); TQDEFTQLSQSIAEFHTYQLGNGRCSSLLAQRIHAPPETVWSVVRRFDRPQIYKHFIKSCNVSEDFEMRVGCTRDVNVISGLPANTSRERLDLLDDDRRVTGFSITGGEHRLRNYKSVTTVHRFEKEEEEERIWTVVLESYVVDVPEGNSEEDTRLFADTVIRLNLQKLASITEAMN
| Substitution | relative binding score [%] |
| --- | --- |
| S63A | 47.8 |
| P36M | 7.4 |
| D48C | -6.94 |
| E174D | 0.243 |
| V40F | -15 |
| F15P | -0.456 |
| R46P | -1.43 |
| V44W | -5.5 |
| A13I | 5.22 |
| C72E | 15 |
| R98T | 1.8 |
| D95G | -3.33 |
| F47M | 2.49 |
| E4Y | 10.8 |
| E127C | 29.1 |
| D3Y | 28.1 |
| S104R | 2.23 |
| I33G | 1.44 |
| Q10C | 7.45 |
| L156K | -2.82 |
| M68I | 25.5 |
| D97R | 16 |
| R123K | 54.3 |
| E38S | 6.47 |
| R88N | 4.49 |

Further values, each from its own experiment
| Substance | target | test | test system | setting | scale | endpoint | value |
| --- | --- | --- | --- | --- | --- | --- | --- |
| PhoQ, residues 284 288 289 292 302 303 AAQSYM | PhoP, residues 12 14 15 18 19 VQALL (Escherichia coli, UniProt P23836) | Sort-seq, refers to: YFP reporter | E. coli | PhoQ-PhoP variant library, added: 10 µM Mg2+ | baseline: high Mg2+ state, higher = stronger signaling | fold induction | 2.83 |

A few entries again (series 7):
| Substitution | relative binding score [%] |
| --- | --- |
| V40F | -15 |
| F15P | -0.456 |
| R46P | -1.43 |
| V44W | -5.5 |
| A13I | 5.22 |
| C72E | 15 |
| R98T | 1.8 |
| D95G | -3.33 |
| F47M | 2.49 |
| E4Y | 10.8 |
| E127C | 29.1 |
| D3Y | 28.1 |
| S104R | 2.23 |
| I33G | 1.44 |
| Q10C | 7.45 |
| L156K | -2.82 |
| M68I | 25.5 |
| D97R | 16 |
| R123K | 54.3 |
| E38S | 6.47 |
| R88N | 4.49 |
